Measured values of several laboratories.
A part holds a random share of what one study measured. Substitutions count along the parent as printed.

Sample 1
Target: RING finger protein unkempt homolog, zinc fingers 1-6, GST-SBP tag (UNK, Homo sapiens, UniProt Q9C0B0, residues 30-357)
UniProt Q9C0B0, sequence (30-357, looked up): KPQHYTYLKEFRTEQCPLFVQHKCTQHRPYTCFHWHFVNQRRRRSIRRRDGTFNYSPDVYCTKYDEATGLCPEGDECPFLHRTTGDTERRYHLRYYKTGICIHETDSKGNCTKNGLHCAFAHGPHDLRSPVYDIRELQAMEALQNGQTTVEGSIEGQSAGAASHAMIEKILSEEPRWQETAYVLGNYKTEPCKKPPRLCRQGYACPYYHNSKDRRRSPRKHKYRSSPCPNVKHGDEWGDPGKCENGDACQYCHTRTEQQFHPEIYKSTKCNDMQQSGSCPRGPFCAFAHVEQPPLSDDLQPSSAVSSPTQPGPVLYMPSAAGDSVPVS
Method: RNA Bind-n-Seq
Form: RNA
Sample: in vitro
Tested at: not given
Notes: RNA with constant flanks, human and mouse sites, ends assumed
Relative to: input RNA pool
Direction: higher = stronger binding
Constant ends, left off below: GGGAGUUCUACAGUCCGACGAUC … CAACAGAGGAUUGAGCAUCA
Sequence | bound/input enrichment
GAGACCCUGGGAGCCUUCCAGCCGUCAGGCUGCACGCACGUACCUGCUCUAGCUUGCUGGGUUUGUUGUUUGUUUCUUUAUGUAGACUUUGUCCUUGGCGUAAUUUCCCACUCUAGUAAA | 0.823 ratio
AAACUAAUACUUAUCUUUAAAAUAGUAAAUAGGAUUUUAAACAGAGAAUUUUAUCAGUAAUAGGUGUCAGUUUUUAAAAAAUUGCUUGUAGGCUGAGCGCGGUGGCUCACGCCUGUAAUC | 3.23 ratio
AUCAGUGUCGGACGCUAACACCACUUUCGCCCCUUCCCCGCCCCACACACCCUGUCUUCCCAUAGGAGCAUUACCCUCUGUUGUCCAUCUGCCAUCAGAUGUCCCCACUGAAGCAUGCAU | 0.488 ratio
UUUAUCCAGGGCGAAGCUUUGGACCCGCAGCAUGUCUGCAACCCAGCCAUUUUCAGGCUAAUAGCUCGUCAGCUUGCUAAAAUCCAUGCUAUUCAUGCGCACAAUGGCUGGAUCCCCAAA | 0.125 ratio
UUCACCAAGCUGAUAAACCCCCAGGAAAACACCUGCAGCUUGGAGGAGUUUGUCCUCCAGCUGGAGCUGUCUGGGUAUAGUCCCGAAGACCUGACUGCUGCCUUGGAGAUCUUGGAAGCC | 0.151 ratio
UGUUUCCCUUUGUGGGUGGGUUCCUACAGCGCUCGUUCUAGAACACAAGUGGAUCCUUUUUGAAUGUUCAUGGAAGGGCCAGGAGUUCUGUACAGCCAGGACCCUGCAGCUUUAUUAAAG | 0.168 ratio
UAUGUAUAUCUCAAGCAAACCAAAAUGCAAUCUUCUGCUUUGUUCUGUUCUAAAUCAUUGUAGUUAUAUCUUUCUGAAACCAUUUUGCAUUUAGUUGAAAUUGUCAGUAUUUAUGCUUUU | 0.584 ratio
CUAGCAGAGAUAACCCUUGAUCCUCCUCCUAACUGCAGUGCUGGGCCUAAAGGAGAUAACAUUUAUGAAUGGAGGUCAACUAUACUUGGUCCACCAGGUUCUGUAUAUGAAGGUGGUGUU | 0.343 ratio
UUUCUGGUAAAUUCAUGUCAGUAAUUUGUUGAAGAGUUAACAAGAAAAGGUCUUUCUAGAUUGUGUCUAAGAUGAAAUAAAAUGUAACUUUUGCUGCAGUGGUAUGUUUCUUUUGGAGUA | 0.234 ratio
GAAGUUUGUAUCAACCCAUACCACUAUAAGAGAGUGGAGAGUCCAGUCUUACCUCCAGUAUUAGUGCCUCGUCAUAAUGAAUUCAAUCCACAACACAGCCUUCUGGUUCAGUUUAGGAAC | 2.92 ratio
UUCAGUACAGAUUCGAUUCAUCUGGCCUCCCCUAACAGGAAUAUUGAUGUUUCAACUACCAUAUCUAAGUUUACAAACACACAGAUUACAGAACAUUACUCUACCUGUAUCAAGCUUUCU | 0.103 ratio

Sample 2
Target: Prothrombin, mature alpha-thrombin (F2, Homo sapiens, UniProt P00734)
Method: aptamer microarray, sandwich
Form: DNA with 2'F-ANA
Sample: in vitro
Tested at: 200 nM
Notes: whole 15-mer aptamer, many near background
With: Cy3 exosite-II aptamer, 400 nM
Direction: higher = stronger binding
Sequence: GGTTGGTGTGGTTGG
Modification | mean fluorescence intensity [a.u.]
2'F-ANA at 1 3 4 9 13 | 125
2'F-ANA at 1 2 3 4 6 7 | 172
2'F-ANA at 2 4 11 12 15 | 448
2'F-ANA at 1 2 3 5 6 11 12 13 14 | 48
2'F-ANA at 1 7 10 13 15 | 52.7
2'F-ANA at 2 3 4 7 10 11 12 14 | 214
2'F-ANA at 1 3 4 6 8 9 10 13 | 56.2
2'F-ANA at 2 3 4 5 7 9 13 14 15 | 137
2'F-ANA at 4 5 7 11 12 13 14 15 | 61.8
2'F-ANA at 1 2 7 13 15 | 141
2'F-ANA at 1 4 5 8 11 15 | 50.9
2'F-ANA at 3 6 7 8 13 | 929

Sample 3
Target: CCNA1, cyclin fold, Cln2 fusion (human)
Method: yeast growth competition, sequencing
Sample: yeast
Notes: weak parent motif
Relative to: not given
Direction: higher = stronger binding
Starting sequence: E2F1 docking peptide (human); PPVKRRLDLETDH
Substitution | normalised enrichment score
PPVHRRLDLETDH [K4H] | 0.449
PPVKRRLSLETDH [D8S] | 0.573
PPVKRRLFLETDH [D8F] | 0.486
PPVKRRLVLETDH [D8V] | 0.373
PPVKRRLDLETDE [H13E] | 0.669
YPVKRRLDLETDH [P1Y] | 0.888
PDVKRRLDLETDH [P2D] | 0.554
PPVKRRLILETDH [D8I] | 0.487
PPVKRRLKLETDH [D8K] | 0.465
CPVKRRLDLETDH [P1C] | 0.725
PPVKRFLDLETDH [R6F] | 0.252
PPVKRSLDLETDH [R6S] | 0.206
PPVKRRLDLETDN [H13N] | 0.541
PPVKRRLDLETMH [D12M] | 0.367
PAVKRRLDLETDH [P2A] | 0.433

Mixed results
Substance | target | assay | test system | setting | how to read | quantity | value
PhoQ, residues 284 288 289 292 302 303 AQGLTV | PhoP, residues 12 14 15 18 19 SYFRT (Escherichia coli, UniProt P23836) | Sort-seq, item: YFP reporter | E. coli | PhoQ-PhoP variant library, with: 10 µM Mg2+ | relative to: high Mg2+ state, higher = stronger signaling | fold induction | 0.782

For quick reference, copied from above (sample 2):
Modification | mean fluorescence intensity [a.u.]
2'F-ANA at 2 3 4 5 7 9 13 14 15 | 137
2'F-ANA at 4 5 7 11 12 13 14 15 | 61.8
2'F-ANA at 1 2 7 13 15 | 141
2'F-ANA at 1 4 5 8 11 15 | 50.9
2'F-ANA at 3 6 7 8 13 | 929
